Assay results gathered from unrelated publications.
Parts stem from different laboratories: compare values within a part only. Substitutions count along the parent as printed.
Chain of UniProt Q8L7G0 (whole entry, looked up): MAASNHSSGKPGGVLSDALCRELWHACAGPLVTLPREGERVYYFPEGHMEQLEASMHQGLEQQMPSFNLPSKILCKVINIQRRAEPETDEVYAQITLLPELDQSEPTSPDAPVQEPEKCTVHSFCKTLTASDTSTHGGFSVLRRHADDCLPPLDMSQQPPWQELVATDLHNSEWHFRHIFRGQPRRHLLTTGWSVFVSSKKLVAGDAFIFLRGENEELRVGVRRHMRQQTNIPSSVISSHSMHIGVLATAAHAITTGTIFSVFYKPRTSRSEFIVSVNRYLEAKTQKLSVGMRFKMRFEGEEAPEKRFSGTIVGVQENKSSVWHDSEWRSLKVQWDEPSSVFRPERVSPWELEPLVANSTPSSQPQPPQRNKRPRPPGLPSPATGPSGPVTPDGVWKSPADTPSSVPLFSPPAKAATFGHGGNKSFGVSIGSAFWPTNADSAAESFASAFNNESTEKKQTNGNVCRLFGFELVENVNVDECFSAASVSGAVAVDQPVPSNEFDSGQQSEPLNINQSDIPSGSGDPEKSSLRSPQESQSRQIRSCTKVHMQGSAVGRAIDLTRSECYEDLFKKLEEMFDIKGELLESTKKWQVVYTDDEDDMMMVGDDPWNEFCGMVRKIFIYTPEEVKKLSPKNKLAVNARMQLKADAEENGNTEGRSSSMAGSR

Study 1
Target: ABI1, truncated, D143A, DHFR fusion (Arabidopsis thaliana)
Method: DHFR PCA, deep sequencing
Medium: yeast
Notes: methotrexate growth selection, single substitutions
With: (+)-ABA 0.0091 µM
Baseline: wild-type fitted maximum
Direction: higher = stronger binding
Quantity: relative binding score
Starting sequence: PYL1, truncated, DHFR fusion (Arabidopsis thaliana); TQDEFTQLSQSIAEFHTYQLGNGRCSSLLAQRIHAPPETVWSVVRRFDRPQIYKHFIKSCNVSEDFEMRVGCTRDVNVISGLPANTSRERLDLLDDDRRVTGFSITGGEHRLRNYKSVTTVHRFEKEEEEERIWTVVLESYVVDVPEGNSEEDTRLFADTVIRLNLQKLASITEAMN
C60V: 41.4%
R49W: -8.42%
E67S: 16.2%
I79N: 8.78%
N85I: 70.4%
W134A: 5.68%
L164D: 0.36%
S140L: 0.751%
D3H: 20.3%

Study 2
Target: CCNA1, cyclin fold, Cln2 fusion (human)
Method: yeast growth competition, sequencing
Medium: yeast
Notes: weak parent motif
Baseline: not given
Direction: higher = stronger binding
Quantity: normalised enrichment score
Starting sequence: RB1 docking peptide (human); PKPLKKLRFDIEG
PKPLKKLRFDIEN [G13N]: 0.0927
PKPLCKLRFDIEG [K5C]: 0.0898
PKPLKKLRFFIEG [D10F]: 0.369
PKPLRKLRFDIEG [K5R]: 0.0611
PKPLKKLRFDIES [G13S]: -0.119
IKPLKKLRFDIEG [P1I]: 0.214
PKPLKKMRFDIEG [L7M]: 0.0946
PKPLKKLRTDIEG [F9T]: 0.296
PKVLKKLRFDIEG [P3V]: 0.205
PKPLKKIRFDIEG [L7I]: 0.436
PKPLKKLRFDIHG [E12H]: -0.115

Mixed results
UBE2U: UBE2U UBC core domain (UniProt Q5VVX9)
Chain of UniProt Q5VVX9 (whole entry, looked up): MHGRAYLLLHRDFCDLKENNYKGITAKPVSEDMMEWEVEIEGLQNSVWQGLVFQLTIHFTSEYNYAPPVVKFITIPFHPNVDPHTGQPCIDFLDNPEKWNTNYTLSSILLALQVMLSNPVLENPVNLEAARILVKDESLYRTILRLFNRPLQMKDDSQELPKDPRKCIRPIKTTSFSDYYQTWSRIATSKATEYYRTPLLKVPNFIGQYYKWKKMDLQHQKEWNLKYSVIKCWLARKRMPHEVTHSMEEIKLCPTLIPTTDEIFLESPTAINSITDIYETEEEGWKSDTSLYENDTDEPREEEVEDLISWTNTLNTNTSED
B1: IAA18 (Arabidopsis thaliana, UniProt O24408); chain MEGYSRNGEISPKLLDLMIPQERRNWFHDEKNSVFKTEEKKLELKLGPPGEEDDDESMIRHMKKEPKDKSILSLAGKYFSPSSTKTTSHKRTAPGPVVGWPPVRSFRKNLASGSSSKLGNDSTTSNGVTLKNQKCDAAAKTTEPKRQGGMFVKINMYGVPIGRKVDLSAHNSYEQLSFTVDKLFRGLLAAQRDFPSSIEDEKPITGLLDGNGEYTLTYEDNEGDKMLVGDVPWQMFVSSVKRLRVIKTSEISSALTYGNGKQEKMRR
B2: CNOT4 RING domain (UniProt O95628); chain MSRSPDAKEDPVECPLCMEPLEIDDINFFPCTCGYQICRFCWHRIRTDENGLCPACRKPYPED
FDPPLESKYECPICLMALREAVQTPCGHRFCKACIIKSIRDAGHKCPVDNEILLENQLFP (TRAF6 RING domain (UniProt Q9Y4K3))  lacZ reporter activity (UBE2U; yeast two-hybrid; yeast; mostly zero background; baseline: not given, higher = stronger interaction): 9660
B1 (IAA18)  positive tests (ARF1 538-665 (Arabidopsis thaliana, UniProt Q8L7G0); two-hybrid; baseline: out of 4 tests, higher = firmer interaction): 0
B2 (CNOT4 RING domain)  lacZ reporter activity (UBE2U; yeast two-hybrid; yeast; mostly zero background; baseline: not given, higher = stronger interaction): 0
